Results of several laboratories.
Each numbered part is a random draw from the data of one study; scales do not carry over between parts. Substitutions count along the parent as printed.

Study 1 — technique: protein binding microarray; molecule type: double-stranded DNA, one strand shown; sample: in vitro; tested at: not given; baseline: not given; direction: higher = stronger binding
Target: Histone acetyltransferase KAT6A, winged helix 1, GST fusion (KAT6A, Homo sapiens, UniProt Q92794, residues 1-85)
Setting: 8-mer, flanks averaged, mean of 2 arrays, mostly near background
Target sequence (chain): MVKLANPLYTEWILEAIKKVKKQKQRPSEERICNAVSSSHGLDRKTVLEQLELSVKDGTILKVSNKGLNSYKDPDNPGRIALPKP
Strand	E-score
TCTTATAA	0.0399
GCTTAGCA	0.109
AATTGACG	0.0199
ATATATTG	-0.00182
CGCTGCTA	0.09
AAGAGCCC	0.0249
GTACAGAC	0.0243
CCACCGTA	0.0744
CAATAAGC	0.125
GATATCGA	-0.237
ATAATAGG	-0.123
ACGTGGCT	-0.179
GCCTTTAC	0.116
GCTACCGA	0.233
CCCACCCC	0.091
GTACGCAA	0.105
AAAAGTGT	-0.14
ATTTTTGA	-0.0795
ATTTAGGA	-0.218

Study 2 — technique: universal PBM; molecule type: double-stranded DNA, one strand shown; sample: in vitro; tested at: not given; direction: higher = stronger binding
Target: Sal-like protein 4, full length isoform B (SALL4, Homo sapiens, UniProt Q9UJQ4-2, residues 1-616)
Setting: 8-mer, flanks averaged, mean of replicates
Target sequence (chain): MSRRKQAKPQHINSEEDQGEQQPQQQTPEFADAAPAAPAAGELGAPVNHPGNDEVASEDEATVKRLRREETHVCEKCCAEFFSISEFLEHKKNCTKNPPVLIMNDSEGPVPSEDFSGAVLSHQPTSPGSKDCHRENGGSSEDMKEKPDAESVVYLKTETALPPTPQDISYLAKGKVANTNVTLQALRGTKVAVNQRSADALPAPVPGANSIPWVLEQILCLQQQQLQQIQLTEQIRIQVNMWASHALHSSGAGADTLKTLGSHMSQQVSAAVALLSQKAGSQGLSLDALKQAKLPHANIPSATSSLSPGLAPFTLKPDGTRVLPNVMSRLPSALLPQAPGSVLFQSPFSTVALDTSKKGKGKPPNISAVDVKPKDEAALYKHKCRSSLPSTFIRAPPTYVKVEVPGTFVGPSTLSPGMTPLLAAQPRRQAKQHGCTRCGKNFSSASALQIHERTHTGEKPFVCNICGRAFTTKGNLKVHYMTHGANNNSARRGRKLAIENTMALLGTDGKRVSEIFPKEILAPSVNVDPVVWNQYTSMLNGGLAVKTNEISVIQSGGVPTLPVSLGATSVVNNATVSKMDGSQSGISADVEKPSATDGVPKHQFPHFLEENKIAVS
Strand	E-score
CCTCCCCC	-0.179
ATGAGCGA	-0.0265
CCACACGG	-0.256
GGGACGCA	-0.19
AAAGAAGG	0.0102
ACCACACG	-0.0863
AGGCAACA	-0.119
CGTAAGCC	-0.15
AATGTATC	0.308
GCGCTCAA	-0.164
GAGAGCCC	-0.264
CGAATACA	0.12
GTGAAACA	0.114
ATTGCTAA	0.259
AAGCAAAT	0.188
TGCTAACA	0.0194
AGTCTCCG	-0.237

Study 3 — technique: DHFR PCA, deep sequencing; sample: yeast; added: (+)-ABA 0 µM; baseline: wild-type fitted maximum; direction: higher = stronger binding
Target: ABI1, truncated, D143A, DHFR fusion (Arabidopsis thaliana)
Setting: methotrexate growth selection, single substitutions
Parent: PYL1, truncated, DHFR fusion (Arabidopsis thaliana); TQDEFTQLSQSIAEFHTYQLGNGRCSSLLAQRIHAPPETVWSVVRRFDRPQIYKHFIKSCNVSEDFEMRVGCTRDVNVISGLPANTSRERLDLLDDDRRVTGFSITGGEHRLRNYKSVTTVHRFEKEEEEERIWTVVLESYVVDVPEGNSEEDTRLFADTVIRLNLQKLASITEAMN
Variant	relative binding score
T17K	5.46%
E139W	5.13%
E14W	-0.305%
N85F	56.1%
C72G	0.156%
V137P	1.05%
N22E	52.7%
Y18D	-1.18%
S11P	35.4%
E174C	-3.07%
T86A	6.55%
G81A	13.9%
Y53M	-0.487%
D75P	0.458%
G107D	23.8%
M68F	4.39%

Study 4 — target: JDP2, bZIP domain (human); technique: DHFR protein complementation; sample: yeast; baseline: wild-type JUN-FOS pair; direction: higher = stronger binding
Setting: single substitutions, most at no-binding floor
Parent: JUN, bZIP domain (human); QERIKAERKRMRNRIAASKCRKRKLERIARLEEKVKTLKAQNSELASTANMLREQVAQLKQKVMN; partner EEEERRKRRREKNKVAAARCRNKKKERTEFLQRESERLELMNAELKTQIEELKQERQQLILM
Variant	binding fitness [natural log]
L31E	0.248
V35W	0.28
L45F	0.202
L38K	-0.0104
L45W	0.177
A46M	0.268
Q55A	0.315
E54I	0.256
M51F	0.321
R53F	0.122
A40D	0.335
R30G	0.344
A29M	0.0399
Q55V	0.191
K39A	0.216
L59G	0.00578

Study 5 — technique: protein-binding microarray; molecule type: double-stranded DNA, one strand shown; sample: in vitro; tested at: 2200 nM top; setting: 60-bp whole probe; added: salmon DNA 0.4 mg/ml; baseline: random background probes; direction: higher = stronger binding; shared flanks, not repeated: GCCTAGCAC … GTCTTGATTCGCTTGACGCTGCTG
Target: Interferon regulatory factor 7, full length, phosphomimetic (IRF7, Homo sapiens, UniProt Q92985, residues 1-503, S471D/S472D/S475D/S476D/S477D/S483D/S484D/S487D)
Target sequence (chain): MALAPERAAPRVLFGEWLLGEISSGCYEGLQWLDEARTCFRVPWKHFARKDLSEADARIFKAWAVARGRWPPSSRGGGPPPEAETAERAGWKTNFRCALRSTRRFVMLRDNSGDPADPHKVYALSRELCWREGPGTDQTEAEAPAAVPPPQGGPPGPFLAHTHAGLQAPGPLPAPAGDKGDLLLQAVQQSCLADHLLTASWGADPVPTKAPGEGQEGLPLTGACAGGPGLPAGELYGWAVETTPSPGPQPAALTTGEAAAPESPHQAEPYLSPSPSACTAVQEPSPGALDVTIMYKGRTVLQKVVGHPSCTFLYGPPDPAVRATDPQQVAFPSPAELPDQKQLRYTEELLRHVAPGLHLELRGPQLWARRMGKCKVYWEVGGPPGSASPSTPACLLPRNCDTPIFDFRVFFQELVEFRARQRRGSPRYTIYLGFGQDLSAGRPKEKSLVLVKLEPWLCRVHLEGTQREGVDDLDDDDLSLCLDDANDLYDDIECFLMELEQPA
Strand	fitted relative affinity [z-score]
GACGATATCAGTTTCGAGAGGTGCTAG	2.33
TTAGGTTTCGGCTTCGGTTAGTGCTAG	5.73
GACGGTATCGACGATCGGGACGTGCTA	-0.224
TCAGGACTGGACTATCGGTTAGTGCTA	-0.208
TTAGGTTTCCTTTTACTTTAGTGCTAG	4.54
GACGGTTTTGACACTGGGGACGTGCTA	0.657
TCAGATATGCGGTAAGGGACTGTGCTA	-0.58
TTAGATATCGGGACTGGAGTAGTGCTA	-0.466
GACGGTTCCCTTTTCCTGCCGTGCTAG	2.45
TTAGGCATCGGTTTCGGTTAGTGCTAG	6.3
TCATCTCTGGGCTGTGGGACTGTGCTA	0.161
GACGGACTGGGGTATCGGTACGTGCTA	-0.604
TCACATTTCACAGTTAAACTGTGCTAG	1.76
TTAGGTTCCGGTTTCGTTTAGTGCTAG	8.06
TTGGGACTGCTTATCCTTTAGTGCTAG	0.566
TCACTTATTGCTTCCTCACTGTGCTAG	2.29
GGCGAACTGGGGTATCGAGACGTGCTA	-0.772
TTAGGACTGGACACTGGGTTTGTGCTA	-0.542
TTAGGACTGCTCCTCCTTTAGTGCTAG	0.621
TTAGGTCTCATTCTCCTTTAGTGCTAG	1.02
GACGATATCCGTTTCGAGACGTGCTAG	2.69
TTAGGTATCGGGGATCGGTTAGTGCTA	-0.000576
GACGATTTCGGGACTGGTGACGTGCTA	1.31
TTCCTTCTGCCTGTCCATTCGTGCTAG	2.51
ATGCCCCCCAAGAGGGGCGGGTGCTAG	-0.543

Study 6 — technique: protein-binding microarray; molecule type: double-stranded DNA, one strand shown; sample: in vitro; tested at: 0.8 µM; setting: whole 60-bp probe, no competitor; direction: higher = stronger binding; shared flanks, not repeated: … GTCTTGATTCGCTTGACGCTGCTG
Target: Centromere-binding protein 1, full length, N-terminal tag (CBF1, Saccharomyces cerevisiae, UniProt P17106, residues 1-351)
UniProt P17106, sequence (whole entry, looked up): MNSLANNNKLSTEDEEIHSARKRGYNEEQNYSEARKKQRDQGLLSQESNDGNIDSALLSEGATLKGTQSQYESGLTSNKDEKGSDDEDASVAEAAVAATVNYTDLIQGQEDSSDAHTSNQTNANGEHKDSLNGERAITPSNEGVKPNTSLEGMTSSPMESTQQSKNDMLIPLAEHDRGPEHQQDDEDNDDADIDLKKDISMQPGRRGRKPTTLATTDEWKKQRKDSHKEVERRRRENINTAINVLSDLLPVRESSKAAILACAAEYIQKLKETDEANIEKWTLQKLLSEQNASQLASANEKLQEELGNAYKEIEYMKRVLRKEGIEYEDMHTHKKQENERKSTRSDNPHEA
Strand	fluorescence intensity
GAAATAAACAAGTATAACCACCTGATTGAATTGTAG	1090 a.u.
GAATTTGGAGTTAGGGTTGTGATCATTGACGATTAG	556 a.u.
CTACTCCACTTCCATCACGCAATCGTTAGTGCTTTC	566 a.u.
CTATGAGTGTCCGCTGTGATGATGATAGCGGATTTC	527 a.u.
GAAACATGTAATTGTCATCAGCTGTATACTGTTTAG	579 a.u.
GAAATAATAATCTCTGACGTGAAAAGCGGATCGTAG	522 a.u.
CCTAACTACTATATTCATGTCACATAGCTTCGTACA	609 a.u.
GAAGGTTAGCTGTCGTGCGTTTGTATTTTTTCGTAG	498 a.u.
CTAATGTGTTGATAGCAGGTGACGCGTCTGTAATTC	1170 a.u.
GAAAGTGCAAAAGTTCATATGATGCTATCTCCCTAG	513 a.u.
GAAGAGGCGTTCCAACTGATGATGGATACTGCGTAG	497 a.u.
CTATCCTCTCGTAAAATCGTGCGCATGTTAAATTTC	652 a.u.
CTAGTATTACATCAGCACGAGTAACAACTTATGTTC	602 a.u.
GAACATCAAATGGAAGACATCAGCAGTTACACTTAG	507 a.u.
GAATTTGATTGGTCTCACGTTGGCTTGTATATTTAG	567 a.u.
CTATACAATCAAGCTCACCCGAGCCATCCACCTTTC	519 a.u.
GAAGATAATGTCTCACTCGTGCAGTCACATCTCTAG	566 a.u.
GAACAAAAGGGGTGGCAACTGATGGAAAGACTTTAG	526 a.u.

Study 7 — target: CCNE1, cyclin fold, Cln2 fusion (human); technique: yeast growth competition, sequencing; sample: yeast; setting: weak parent motif; baseline: not given; direction: higher = stronger binding
Parent: HIRA docking peptide (human); SLSKRKLELEVET
Variant	normalised enrichment score
V11A	-0.688
S1A	0.641
E8A	0.428
R5K L9F	0.105
K4A	-0.531
R5A	-0.0126
K6A	0.867

A few entries again (study 2):
Strand	E-score
CCTCCCCC	-0.179
ATGAGCGA	-0.0265
CCACACGG	-0.256
GGGACGCA	-0.19
AAAGAAGG	0.0102
ACCACACG	-0.0863
AGGCAACA	-0.119
CGTAAGCC	-0.15
AATGTATC	0.308
GCGCTCAA	-0.164
GAGAGCCC	-0.264
CGAATACA	0.12
GTGAAACA	0.114
ATTGCTAA	0.259
AAGCAAAT	0.188
TGCTAACA	0.0194
AGTCTCCG	-0.237
